Assay results of several laboratories.
Protocols differ between the studies behind these lines.
Sequence of UniProt P11712 (whole entry, looked up): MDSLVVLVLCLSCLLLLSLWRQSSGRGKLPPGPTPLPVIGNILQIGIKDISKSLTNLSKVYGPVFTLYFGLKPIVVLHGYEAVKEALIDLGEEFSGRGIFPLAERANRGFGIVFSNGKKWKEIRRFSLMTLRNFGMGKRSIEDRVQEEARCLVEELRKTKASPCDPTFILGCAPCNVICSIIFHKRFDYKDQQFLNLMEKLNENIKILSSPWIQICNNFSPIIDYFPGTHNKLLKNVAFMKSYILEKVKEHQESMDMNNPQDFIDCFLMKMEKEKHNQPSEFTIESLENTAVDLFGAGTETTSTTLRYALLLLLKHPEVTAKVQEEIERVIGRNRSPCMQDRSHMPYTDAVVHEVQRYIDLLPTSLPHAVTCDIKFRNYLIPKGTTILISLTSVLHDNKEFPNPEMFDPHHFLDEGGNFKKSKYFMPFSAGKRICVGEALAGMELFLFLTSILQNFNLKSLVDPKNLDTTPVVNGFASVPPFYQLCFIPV

COc1cccc(-c2n[nH]c(SCc3ccccn3)n2)c1OC — revertant colonies per plate (Salmonella typhimurium; Ames test, plate incorporation; TA1535; 0.063 mg/plate, without S9): 20
Cc1cc(C(=O)NC(C)(C)COc2cccc3c2C(N)=NS(=O)(=O)N3)cc(C)n1 — revertant ratio (Salmonella typhimurium; Ames test, confirmatory; TA1537; 5000 µg/plate, added: rat liver S9; relative to: solvent control): 1.2
CN1CC[C@]23c4c5ccc(O[C@@H]6O[C@H](C(=O)O)[C@@H](O)[C@H](O)[C@H]6O)c4O[C@H]2[C@@H](O)C=C[C@H]3[C@H]1C5 — stability bias (rat whole blood; 500 nM, 4 freeze-thaw cycles): -8.91%
CC(C)CC(=O)OC[C@H]1O[C@@](C#N)(c2ccc3c(N)ncnn23)[C@H](O)[C@@H]1O — intrinsic clearance (Cytochrome P450 2C9 (CYP2C9, Homo sapiens, UniProt P11712); metabolic stability; recombinant enzyme; 1 µM): 0 µL/min/pmol
O=C1c2c(O)c(=O)ccn2N([C@@H]2c3ccccc3SCc3c2ccc(F)c3F)[C@@H]2COCCN12 — Cmax (BALB/c mouse; subcutaneous, 0.25 mg/kg q24h): 17.4 ng/mL
CC(Cc1ccccc1)NCCC(c1ccccc1)c1ccccc1 (stereo not shown) — CC50 (African green monkey cells; 5 days): 8.41 µM
O=c1ccc2ccccc2o1 — chance response (NHEK; cell count; concentration not given, 6 h, HIF1alpha, inflammation, pH panel): 0.01%
CC(=O)c1ccc2c(c1)N(CCCN1CCN(CCO)CC1)c1ccccc1S2 — CC50 (African green monkey cells; 5 days): 14.6 µM
COC(=O)[C@H]1[C@@H](OC(=O)c2ccccc2)C[C@@H]2CC[C@H]1N2 — stability bias (rat, whole blood; 10 nM, 4 months, -80 °C, long-term storage): 2.67%
Cc1[nH]c(/C=C2\C(=O)Nc3ccccc32)c(C)c1CCC(=O)O — CC50 (African green monkey cells; 5 days): > 25.1 µM
COc1cc2c(Oc3ccc4[nH]c(C)cc4c3F)ccnc2cc1OCC1(N)CC1 — grade 1 or 2 ALT elevation (paediatric recurrent refractory sarcoma; 12 mg): 54.5%
CCC(C)n1ncn(-c2ccc(N3CCN(c4ccc(OC[C@H]5CO[C@](Cn6cncn6)(c6ccc(F)cc6F)O5)cc4)CC3)cc2)c1=O (stereo partly shown) — CC50 (African green monkey cells; 5 days): > 100 µM
CN1CC[C@]23c4c5ccc(O)c4O[C@H]2[C@@H](O[C@@H]2O[C@H](C(=O)O)[C@@H](O)[C@H](O)[C@H]2O)C=C[C@H]3[C@H]1C5 — stability bias (rat, whole blood; 10 nM, 4 h, room temperature, bench-top storage): 4.83%
